Results gathered from unrelated publications.
Parts stem from different laboratories: compare values within a part only. Positions count from the first letter of the parent shown.
Sequence of UniProt Q712K3 (whole entry, looked up): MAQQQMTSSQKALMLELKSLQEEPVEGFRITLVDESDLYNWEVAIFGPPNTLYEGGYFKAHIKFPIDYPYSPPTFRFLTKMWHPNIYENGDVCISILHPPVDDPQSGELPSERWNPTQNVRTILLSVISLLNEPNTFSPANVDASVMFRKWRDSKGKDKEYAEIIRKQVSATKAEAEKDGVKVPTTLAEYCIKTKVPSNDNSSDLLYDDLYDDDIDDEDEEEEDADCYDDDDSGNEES
Sequence of UniProt Q9NR09 (whole entry, looked up): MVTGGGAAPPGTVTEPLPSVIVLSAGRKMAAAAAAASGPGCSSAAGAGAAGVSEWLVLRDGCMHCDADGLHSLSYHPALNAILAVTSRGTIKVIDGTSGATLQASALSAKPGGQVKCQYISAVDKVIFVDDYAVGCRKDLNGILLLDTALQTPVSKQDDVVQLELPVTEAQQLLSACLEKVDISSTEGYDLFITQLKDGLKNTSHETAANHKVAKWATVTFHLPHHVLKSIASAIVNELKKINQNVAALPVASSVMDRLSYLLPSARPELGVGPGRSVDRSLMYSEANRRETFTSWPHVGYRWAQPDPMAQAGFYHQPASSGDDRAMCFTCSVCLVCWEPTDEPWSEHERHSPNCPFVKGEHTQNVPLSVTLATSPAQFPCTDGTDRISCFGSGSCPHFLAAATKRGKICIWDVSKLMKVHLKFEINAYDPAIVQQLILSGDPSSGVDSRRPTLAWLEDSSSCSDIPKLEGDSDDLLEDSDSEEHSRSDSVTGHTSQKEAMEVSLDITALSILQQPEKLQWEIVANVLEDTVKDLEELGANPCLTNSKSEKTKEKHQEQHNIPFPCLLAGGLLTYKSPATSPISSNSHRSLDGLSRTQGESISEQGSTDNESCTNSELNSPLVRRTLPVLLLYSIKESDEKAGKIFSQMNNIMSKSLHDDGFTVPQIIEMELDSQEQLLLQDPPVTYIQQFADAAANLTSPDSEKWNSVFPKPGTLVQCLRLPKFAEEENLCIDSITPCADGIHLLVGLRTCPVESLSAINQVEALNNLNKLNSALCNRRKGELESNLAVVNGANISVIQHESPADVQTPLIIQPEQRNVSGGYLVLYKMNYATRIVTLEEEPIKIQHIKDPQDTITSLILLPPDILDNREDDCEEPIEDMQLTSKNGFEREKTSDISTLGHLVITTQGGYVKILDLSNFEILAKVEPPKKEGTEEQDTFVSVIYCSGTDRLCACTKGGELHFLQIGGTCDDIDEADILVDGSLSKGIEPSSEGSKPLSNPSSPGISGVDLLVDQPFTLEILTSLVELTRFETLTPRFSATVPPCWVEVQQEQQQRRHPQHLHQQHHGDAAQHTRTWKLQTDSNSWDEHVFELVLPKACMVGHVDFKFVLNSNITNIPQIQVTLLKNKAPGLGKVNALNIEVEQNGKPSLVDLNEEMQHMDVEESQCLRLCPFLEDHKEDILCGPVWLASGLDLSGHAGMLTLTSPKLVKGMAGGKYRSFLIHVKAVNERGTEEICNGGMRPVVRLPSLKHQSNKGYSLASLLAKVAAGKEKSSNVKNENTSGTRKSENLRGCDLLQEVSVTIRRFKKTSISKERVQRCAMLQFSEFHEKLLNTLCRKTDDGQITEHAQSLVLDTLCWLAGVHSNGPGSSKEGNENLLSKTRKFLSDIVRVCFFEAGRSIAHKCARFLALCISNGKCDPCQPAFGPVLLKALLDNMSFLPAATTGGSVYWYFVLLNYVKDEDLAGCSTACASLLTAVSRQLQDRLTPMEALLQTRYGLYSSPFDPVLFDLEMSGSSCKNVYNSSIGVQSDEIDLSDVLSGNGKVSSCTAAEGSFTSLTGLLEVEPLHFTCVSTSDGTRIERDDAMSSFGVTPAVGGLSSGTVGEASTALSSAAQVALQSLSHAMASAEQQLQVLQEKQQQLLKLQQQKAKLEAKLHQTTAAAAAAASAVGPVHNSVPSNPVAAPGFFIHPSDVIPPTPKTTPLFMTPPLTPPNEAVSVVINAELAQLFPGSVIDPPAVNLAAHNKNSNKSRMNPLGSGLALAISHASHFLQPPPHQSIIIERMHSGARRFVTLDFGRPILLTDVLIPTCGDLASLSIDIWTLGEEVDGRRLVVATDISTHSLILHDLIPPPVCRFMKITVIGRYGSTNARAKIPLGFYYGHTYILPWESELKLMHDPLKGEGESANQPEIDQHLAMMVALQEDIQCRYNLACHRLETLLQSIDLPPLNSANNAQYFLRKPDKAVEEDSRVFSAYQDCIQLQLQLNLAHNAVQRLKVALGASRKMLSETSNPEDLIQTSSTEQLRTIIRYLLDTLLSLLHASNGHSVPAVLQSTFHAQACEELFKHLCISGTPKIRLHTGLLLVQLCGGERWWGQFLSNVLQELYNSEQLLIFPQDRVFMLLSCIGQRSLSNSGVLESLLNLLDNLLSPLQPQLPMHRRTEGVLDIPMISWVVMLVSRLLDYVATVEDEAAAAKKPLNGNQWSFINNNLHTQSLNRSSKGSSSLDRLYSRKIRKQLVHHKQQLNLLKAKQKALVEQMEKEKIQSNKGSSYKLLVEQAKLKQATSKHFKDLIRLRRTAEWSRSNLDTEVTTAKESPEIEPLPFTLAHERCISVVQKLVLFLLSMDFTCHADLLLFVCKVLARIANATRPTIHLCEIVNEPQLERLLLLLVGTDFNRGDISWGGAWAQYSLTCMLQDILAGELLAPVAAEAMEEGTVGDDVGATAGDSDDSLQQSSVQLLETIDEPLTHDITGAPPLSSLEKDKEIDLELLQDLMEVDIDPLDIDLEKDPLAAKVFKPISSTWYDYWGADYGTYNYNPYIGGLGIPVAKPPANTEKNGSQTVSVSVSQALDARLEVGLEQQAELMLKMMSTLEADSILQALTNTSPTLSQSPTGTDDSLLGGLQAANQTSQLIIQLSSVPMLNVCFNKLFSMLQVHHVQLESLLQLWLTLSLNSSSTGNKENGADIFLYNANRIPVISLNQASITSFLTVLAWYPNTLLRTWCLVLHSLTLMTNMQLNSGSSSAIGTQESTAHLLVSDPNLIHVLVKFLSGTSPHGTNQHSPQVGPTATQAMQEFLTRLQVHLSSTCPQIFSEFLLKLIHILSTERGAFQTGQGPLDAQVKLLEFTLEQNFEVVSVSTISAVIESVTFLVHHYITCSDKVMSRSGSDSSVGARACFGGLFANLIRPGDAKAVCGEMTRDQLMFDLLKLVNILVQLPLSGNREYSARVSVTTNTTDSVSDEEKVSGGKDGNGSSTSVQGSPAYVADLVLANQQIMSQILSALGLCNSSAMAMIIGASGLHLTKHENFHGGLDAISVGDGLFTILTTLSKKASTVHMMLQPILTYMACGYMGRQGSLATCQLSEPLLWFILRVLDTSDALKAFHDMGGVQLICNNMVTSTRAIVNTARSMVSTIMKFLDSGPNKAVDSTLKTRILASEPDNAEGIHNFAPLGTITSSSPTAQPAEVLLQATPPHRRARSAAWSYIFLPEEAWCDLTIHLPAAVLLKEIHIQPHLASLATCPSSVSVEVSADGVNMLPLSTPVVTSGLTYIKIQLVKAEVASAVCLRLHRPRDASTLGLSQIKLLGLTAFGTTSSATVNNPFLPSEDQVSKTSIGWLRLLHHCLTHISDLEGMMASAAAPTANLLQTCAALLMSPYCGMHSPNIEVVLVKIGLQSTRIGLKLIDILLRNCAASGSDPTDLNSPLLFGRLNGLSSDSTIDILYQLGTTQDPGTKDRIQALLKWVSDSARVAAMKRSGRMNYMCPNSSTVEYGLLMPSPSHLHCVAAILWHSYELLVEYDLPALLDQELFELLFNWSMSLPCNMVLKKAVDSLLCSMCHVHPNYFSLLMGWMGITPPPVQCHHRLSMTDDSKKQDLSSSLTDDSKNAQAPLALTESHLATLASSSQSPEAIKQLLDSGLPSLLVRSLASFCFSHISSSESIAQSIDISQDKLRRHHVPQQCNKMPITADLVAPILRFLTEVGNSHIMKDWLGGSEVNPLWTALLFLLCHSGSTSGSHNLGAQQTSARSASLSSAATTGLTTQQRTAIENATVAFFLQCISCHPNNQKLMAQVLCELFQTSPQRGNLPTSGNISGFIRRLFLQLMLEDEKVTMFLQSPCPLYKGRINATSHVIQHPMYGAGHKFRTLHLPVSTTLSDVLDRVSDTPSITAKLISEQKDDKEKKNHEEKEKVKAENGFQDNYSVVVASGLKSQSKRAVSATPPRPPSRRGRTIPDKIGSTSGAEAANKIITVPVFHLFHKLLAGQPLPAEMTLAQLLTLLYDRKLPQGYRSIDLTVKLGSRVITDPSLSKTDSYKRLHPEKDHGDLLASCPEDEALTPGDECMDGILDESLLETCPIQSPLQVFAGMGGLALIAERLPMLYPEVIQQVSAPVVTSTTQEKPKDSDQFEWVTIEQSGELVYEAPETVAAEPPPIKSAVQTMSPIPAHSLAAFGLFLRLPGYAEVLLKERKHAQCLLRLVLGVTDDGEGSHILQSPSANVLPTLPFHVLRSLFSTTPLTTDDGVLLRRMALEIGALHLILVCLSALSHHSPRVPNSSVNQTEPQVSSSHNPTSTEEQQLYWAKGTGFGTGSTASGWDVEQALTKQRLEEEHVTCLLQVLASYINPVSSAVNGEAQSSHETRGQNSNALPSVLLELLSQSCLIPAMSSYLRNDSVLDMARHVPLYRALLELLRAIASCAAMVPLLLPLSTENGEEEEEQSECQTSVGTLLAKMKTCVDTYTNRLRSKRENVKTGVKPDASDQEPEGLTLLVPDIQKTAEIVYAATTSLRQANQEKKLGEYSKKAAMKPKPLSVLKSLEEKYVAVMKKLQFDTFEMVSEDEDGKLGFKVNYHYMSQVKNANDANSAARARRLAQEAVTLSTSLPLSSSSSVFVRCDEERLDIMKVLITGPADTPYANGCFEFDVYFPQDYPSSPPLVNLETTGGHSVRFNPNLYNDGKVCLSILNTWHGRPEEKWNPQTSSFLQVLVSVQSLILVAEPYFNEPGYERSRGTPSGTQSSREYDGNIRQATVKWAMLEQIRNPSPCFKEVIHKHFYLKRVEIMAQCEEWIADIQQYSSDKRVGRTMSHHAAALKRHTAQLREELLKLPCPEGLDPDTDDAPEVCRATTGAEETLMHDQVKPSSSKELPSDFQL

Study 1
Target: Interferon regulatory factor 5, full length, phosphomimetic (IRF5, Homo sapiens, UniProt Q13568-2, residues 1-514, S451D/S453D/S456D/S462D)
Method: protein-binding microarray
Molecule type: double-stranded DNA, one strand shown
Medium: in vitro
Tested at: 940 nM top
Setting: 60-bp whole probe
Added: salmon DNA 0.4 mg/ml
Relative to: random background probes
Reading: higher = stronger binding
Shared flanks, not repeated: GCCTAGCAC … GTCTTGATTCGCTTGACGCTGCTG
| Sequence | fitted relative affinity [z-score] |
| --- | --- |
| ACCTTTGTTTTTTTCTATATGTGCTAG | 2.14 |
| ATTTTTTAGCTTCTCAATTAGTGCTAG | 0.628 |
| GACGGTATCGGGTATAGGGACGTGCTA | 4.81 |
| GTCCTTTTCTTTACTGATGGGTGCTAG | 1.14 |
| GACGATCTCAGACTGGAGTCGTGCTAG | -0.234 |
| TCATGTCTGCCTTTCAAACTGTGCTAG | 0.484 |
| GACGGACTGGGAATCGGGACGTGCTAG | -0.529 |
| GAACATACTAATTTCCATTTGTGCTAG | 0.639 |
| CGGCTACCGCGGCTCCTACAGTGCTAG | -0.398 |
| TTAGATCTCTGTATCGATTAGTGCTAG | 1.64 |
| ATGTATATATGTGTATATATGTGCTAG | 0.217 |
| CCGCCGCCTGGCTGGGGGATGTGCTAG | -0.278 |
| TTAGGTATCCTTCTCCTTTGGTGCTAG | 0.627 |
| TTAGGTTTCGGTTGCGGTTAGTGCTAG | 15.4 |
| TTAAATCTCAGTTTCGATTAGTGCTAG | 8.84 |
| TTAGGTATCCTTACCCTTTAGTGCTAG | 0.24 |
| CTTATTCTCTACTTGTGTCTGTGCTAG | 2.51 |
| GGCGATATCAGTCTCGAGACGTGCTAG | 1.12 |
| GTCGGTTTCGACACTGGGGACGTGCTA | 8.64 |
| TTAGCTATCGACTATCGGTTAGTGCTA | 0.494 |

Study 2
Sequence: B1 (RNF135 RING domain)
Method: yeast two-hybrid
Medium: yeast
Setting: mostly zero background
Relative to: not given
Reading: higher = stronger interaction
B1: RNF135 RING domain (UniProt Q8IUD6); chain PVWLAEDDLGCIICQGLLDWPATLPCGHSFCRHCLEALWGARDARRWACPTCRQGAAQQPHLR
| target | lacZ reporter activity |
| --- | --- |
| UBE2M UBC core domain (UniProt P61081) | 0 |
| UBE2I UBC core domain (UniProt P63279) | 0 |
| UBE2B UBC core domain (UniProt P63146) | 0 |
| BIRC6 UBC core domain (UniProt Q9NR09) | 0 |
| UBE2E3 UBC core domain (UniProt Q969T4) | 0 |
| UBE2C UBC core domain (UniProt O00762) | 0 |
| UBE2L3 UBC core domain (UniProt P68036) | 0 |
| UBE2D1 UBC core domain (UniProt P51668) | 0 |
| UBE2R2 UBC core domain (UniProt Q712K3) | 0 |
| UBE2J1 UBC core domain (UniProt Q9Y385) | 0 |
| UBE2G1 UBC core domain (UniProt P62253) | 0 |
| UBE2Q1 UBC core domain (UniProt Q7Z7E8) | 0 |
| UBE2O UBC core domain (UniProt Q9C0C9) | 0 |
| UBE2Z UBC core domain (UniProt Q9H832) | 0 |
| UBE2T UBC core domain (UniProt Q9NPD8) | 0 |
| UBE2J2 UBC core domain (UniProt Q8N2K1) | 0 |

Study 3
Target: PABPC1L2, full length, GST fusion (mouse, UniProt A0ABA7IW68)
Method: RNAcompete
Molecule type: RNA
Medium: in vitro
Tested at: 20 nM
Setting: 7-mer, probes averaged, single round
Relative to: mean of 7-mers
Reading: higher = stronger binding
Construct (chain): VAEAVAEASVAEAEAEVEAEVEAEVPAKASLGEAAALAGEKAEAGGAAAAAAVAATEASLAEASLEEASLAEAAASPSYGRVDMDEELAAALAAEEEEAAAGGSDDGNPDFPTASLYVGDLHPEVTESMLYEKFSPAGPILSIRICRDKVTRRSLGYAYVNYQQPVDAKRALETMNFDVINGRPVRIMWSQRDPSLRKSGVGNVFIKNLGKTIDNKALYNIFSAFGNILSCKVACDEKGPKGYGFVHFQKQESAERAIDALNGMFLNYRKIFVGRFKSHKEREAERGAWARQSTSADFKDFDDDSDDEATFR
| Sequence | 7-mer Z-score |
| --- | --- |
| CAUAUAA | 0.374 |
| GAGCAUG | 0.00254 |
| CAGUAUA | -0.191 |
| AUGAAAA | 3.01 |
| CGCAAUC | -0.0536 |
| UGGCGCA | -0.103 |
| CAAUGCC | -0.195 |
| AAGCCUG | -0.0554 |
| UGUCUUU | -0.275 |
| GGUUUGC | -0.402 |
| CACUCCU | -0.273 |
| UGAGCAC | -0.153 |
| CAUGCCA | -0.184 |
| AAGUGGU | 0.352 |
| UGCUGUC | -0.269 |
| UUCUCCC | -0.338 |
| GUACGUU | -0.331 |
| UUCAGGG | -0.0319 |
| AUCGCGC | -0.249 |
| UGCCCGG | -0.449 |
| CCAUUGA | -0.162 |
| GUGGAGG | 0.363 |
| GGGUGGA | 0.271 |
| AUGAUUU | -0.0935 |
| GAUCAAU | 0.0334 |

Study 4
Target: CCND1, cyclin fold, Cln2 fusion (human)
Method: yeast growth competition, sequencing
Medium: yeast
Setting: weak parent motif
Relative to: not given
Reading: higher = stronger binding
Starting sequence: BORA docking peptide (human); SSLRRKLFLDGNG; partner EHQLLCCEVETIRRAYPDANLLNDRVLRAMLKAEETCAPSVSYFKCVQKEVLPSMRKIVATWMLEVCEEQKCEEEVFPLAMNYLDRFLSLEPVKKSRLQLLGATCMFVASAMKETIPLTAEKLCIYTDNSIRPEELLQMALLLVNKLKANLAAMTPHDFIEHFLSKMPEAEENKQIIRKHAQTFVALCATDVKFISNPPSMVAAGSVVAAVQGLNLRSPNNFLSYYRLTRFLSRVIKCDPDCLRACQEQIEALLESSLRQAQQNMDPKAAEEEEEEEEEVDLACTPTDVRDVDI
| Substitution | normalised enrichment score |
| --- | --- |
| SSLRKKLFLDGNG [R5K] | 0.455 |
| SSLRAKLFLDGNG [R5A] | 0.0529 |
| SALRRKLFLDGNG [S2A] | 0.494 |
| SSLRRKAFLDGNG [L7A] | -0.495 |
| SSLRRKLALDGNG [F8A] | 0.157 |
| SSLRKKLFFDGNG [R5K L9F] | 0.756 |
| SSLRRKLFLAGNG [D10A] | 0.291 |
| SSLRRKLFADGNG [L9A] | -0.405 |

Study 5
Target: ABI1, truncated, D143A, DHFR fusion (Arabidopsis thaliana)
Method: DHFR PCA, deep sequencing
Medium: yeast
Setting: methotrexate growth selection, single substitutions
Added: (+)-ABA 200 µM
Relative to: wild-type fitted maximum
Reading: higher = stronger binding
Starting sequence: PYL1, truncated, DHFR fusion (Arabidopsis thaliana); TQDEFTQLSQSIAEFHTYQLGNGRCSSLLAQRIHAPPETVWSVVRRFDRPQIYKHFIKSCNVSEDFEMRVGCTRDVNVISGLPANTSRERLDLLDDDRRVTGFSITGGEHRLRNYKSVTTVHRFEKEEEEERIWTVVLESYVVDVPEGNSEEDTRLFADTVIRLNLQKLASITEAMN
| Substitution | relative binding score |
| --- | --- |
| G21C | 98.9% |
| R69K | 104% |
| T39C | 91.8% |
| Y53Q | 31.8% |
| K54E | -0.516% |
| P36A | 89.2% |
| V137D | 8.5% |
| V100F | 60.7% |
| Q51R | 53.1% |
| P37V | 99.6% |
| P50H | 10.9% |
| H110Q | 24% |
| A175P | 90.1% |
| G148E | 81.3% |
| N165Q | 21.2% |
| V70E | 90% |
| E4V | 98.2% |

Study 6
Target: CEBPE, bZIP domain (human)
Method: DHFR protein complementation
Medium: yeast
Setting: single substitutions, most at no-binding floor
Relative to: wild-type JUN-FOS pair
Reading: higher = stronger binding
Starting sequence: JUN, bZIP domain (human); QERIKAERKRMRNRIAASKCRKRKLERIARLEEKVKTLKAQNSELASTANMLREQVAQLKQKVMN; partner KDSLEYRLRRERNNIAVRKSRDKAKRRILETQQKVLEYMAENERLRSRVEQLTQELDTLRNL
| Substitution | binding fitness [natural log] |
| --- | --- |
| T48W | -1.33 |
| K39W | -1.35 |
| V35M | -0.985 |
| E33A | -1.15 |
| L38A | -1.51 |
| S47A | -0.924 |
| R53F | -1.18 |
| K39D | -1.33 |
| V56K | -1.47 |
| V35L | -0.778 |
| A40E | -1.17 |
| S43H | -1.07 |
| E32Y | -1.3 |
| M51R | -0.979 |
| K39A | -1.11 |
| R53W | -1.31 |
| S47Y | -1.14 |
| A57N | -0.984 |
| A40D | -1.18 |

A few entries again (study 4):
| Substitution | normalised enrichment score |
| --- | --- |
| SSLRKKLFLDGNG [R5K] | 0.455 |
| SSLRRKLFADGNG [L9A] | -0.405 |
| SALRRKLFLDGNG [S2A] | 0.494 |
| SSLRRKLFLAGNG [D10A] | 0.291 |
| SSLRRKLALDGNG [F8A] | 0.157 |
| SSLRRKAFLDGNG [L7A] | -0.495 |
| SSLRAKLFLDGNG [R5A] | 0.0529 |
